Measurements of several laboratories.
Each numbered part is a random draw from the data of one study; scales do not carry over between parts.
Sequence of UniProt P80192 (whole entry, looked up): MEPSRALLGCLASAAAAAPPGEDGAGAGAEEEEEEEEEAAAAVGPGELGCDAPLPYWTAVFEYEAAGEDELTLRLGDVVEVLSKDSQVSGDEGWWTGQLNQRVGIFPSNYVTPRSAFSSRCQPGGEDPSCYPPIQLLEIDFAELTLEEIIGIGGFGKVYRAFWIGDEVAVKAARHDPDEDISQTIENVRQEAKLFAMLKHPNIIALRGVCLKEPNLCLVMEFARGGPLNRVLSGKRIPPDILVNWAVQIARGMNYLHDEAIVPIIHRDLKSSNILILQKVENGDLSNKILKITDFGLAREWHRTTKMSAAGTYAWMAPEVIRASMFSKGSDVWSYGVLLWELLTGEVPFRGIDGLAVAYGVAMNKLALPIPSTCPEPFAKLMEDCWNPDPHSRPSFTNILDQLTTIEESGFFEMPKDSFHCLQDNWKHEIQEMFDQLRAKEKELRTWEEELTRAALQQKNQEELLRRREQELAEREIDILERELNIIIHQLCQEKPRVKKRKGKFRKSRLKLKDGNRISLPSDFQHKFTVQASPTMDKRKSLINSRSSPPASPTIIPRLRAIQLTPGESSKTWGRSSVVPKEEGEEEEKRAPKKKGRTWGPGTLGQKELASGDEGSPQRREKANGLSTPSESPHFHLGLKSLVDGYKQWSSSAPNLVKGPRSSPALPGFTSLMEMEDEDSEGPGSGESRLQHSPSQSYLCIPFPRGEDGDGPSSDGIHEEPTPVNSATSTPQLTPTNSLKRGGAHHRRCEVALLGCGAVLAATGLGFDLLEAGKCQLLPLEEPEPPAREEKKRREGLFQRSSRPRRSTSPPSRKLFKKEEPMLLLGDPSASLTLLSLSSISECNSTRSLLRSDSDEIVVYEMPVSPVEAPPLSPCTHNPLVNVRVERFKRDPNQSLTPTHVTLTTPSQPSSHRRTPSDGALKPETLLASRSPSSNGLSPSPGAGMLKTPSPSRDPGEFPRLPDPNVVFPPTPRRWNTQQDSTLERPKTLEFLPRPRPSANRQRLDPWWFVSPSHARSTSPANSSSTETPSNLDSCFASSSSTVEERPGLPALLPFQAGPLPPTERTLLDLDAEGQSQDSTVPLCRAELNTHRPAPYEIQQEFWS

Series 1
Structure (SMILES): CCC(=N\O)/C(C)=C/c1ccc(F)cc1
Read-out: cell-free assay
Technique: competition with immobilised ligand
Tested at: 1 µM
target	remaining binding [%]
HUNK (Homo sapiens, UniProt P57058)	76
MAPK7 (Homo sapiens, UniProt Q13164)	88
AXL (Homo sapiens, UniProt P30530)	100
Tyrosine-protein kinase ABL1, non-phosphorylated (ABL1, Homo sapiens, UniProt P00519, Q252H)	90
PIM3 (Homo sapiens, UniProt Q86V86)	96
MAP3K9 (Homo sapiens, UniProt P80192)	77
GRK7 (Homo sapiens, UniProt Q8WTQ7)	85

Series 2
Target: LIM domain kinase 1 (LIMK1, Homo sapiens, UniProt P53667)
Sequence of UniProt P53667 (whole entry, looked up): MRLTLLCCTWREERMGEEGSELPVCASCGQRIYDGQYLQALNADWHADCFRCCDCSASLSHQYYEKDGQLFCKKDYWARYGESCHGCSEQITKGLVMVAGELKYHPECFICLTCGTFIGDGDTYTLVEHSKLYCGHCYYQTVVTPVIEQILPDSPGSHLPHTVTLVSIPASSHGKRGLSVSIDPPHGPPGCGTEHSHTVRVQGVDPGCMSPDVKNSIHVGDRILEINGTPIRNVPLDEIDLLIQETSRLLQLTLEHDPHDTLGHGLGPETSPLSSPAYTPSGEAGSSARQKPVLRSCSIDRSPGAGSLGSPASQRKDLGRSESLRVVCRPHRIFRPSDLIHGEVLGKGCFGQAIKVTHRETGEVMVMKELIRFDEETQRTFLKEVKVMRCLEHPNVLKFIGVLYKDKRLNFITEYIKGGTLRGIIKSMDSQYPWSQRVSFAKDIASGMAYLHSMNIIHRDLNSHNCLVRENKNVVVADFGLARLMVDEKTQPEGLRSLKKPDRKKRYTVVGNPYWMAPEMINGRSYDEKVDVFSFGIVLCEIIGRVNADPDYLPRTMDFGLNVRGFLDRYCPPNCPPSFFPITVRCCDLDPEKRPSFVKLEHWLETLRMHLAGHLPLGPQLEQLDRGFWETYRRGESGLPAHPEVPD
Read-out: enzyme activity
Mode: inhibitor
Tested at: 0.5 µM
Reference: control
Compound	remaining activity
Cn1sc(=O)n(Cc2ccccc2)c1=O	101%
Cc1cccc(-c2[nH]c(C(C)(C)C)nc2-c2ccc3c(c2)OCO3)n1	86.2%
Cn1c2ccccc2c2c3c(c4c5ccccc5n(CCC#N)c4c21)CNC3=O	45.3%
O=c1c2ccccc2[nH]c(=S)n1CCN1CCC(=C(c2ccc(F)cc2)c2ccc(F)cc2)CC1	98.4%
CCOC(=O)c1c(C)[nH]c(/C=C2\C(=O)Nc3ccccc32)c1C	81.3%
O=S(=O)(c1cccc2cnccc12)N1CCCNCC1	100%
COc1cc2ncnc(Nc3ccc(F)c(Cl)c3)c2cc1OCCCN1CCOCC1	90%
O=C1NC(=O)C(c2cn(CCCO)c3ncccc23)=C1c1cnccn1	96.4%
Cc1ccc(NC(=O)c2ccc(CN3CCN(C)CC3)cc2)cc1Nc1nc(-c2cccnc2)cs1	98.1%
COc1cc2ncnc(Nc3ccc(Oc4ccccc4)cc3)c2cc1OC	89%
COc1cc2nccc(Oc3ccc(NC(=S)NC(=O)c4ccccc4C)cc3)c2cc1OC	82.7%
O=C(CCCc1ccc(-c2ccccc2F)cc1)Nc1ccc(O)cc1	106%
COc1ccc(OC)c2c(=S)c3ccccc3[nH]c12	108%
Cc1nc(-c2ccccc2)c(-c2ccncc2)o1	95.5%

Series 3
Target: DNA polymerase theta, ATPase domain (POLQ, Homo sapiens, UniProt O75417)
Sequence of UniProt O75417 (whole entry, unmodified, looked up): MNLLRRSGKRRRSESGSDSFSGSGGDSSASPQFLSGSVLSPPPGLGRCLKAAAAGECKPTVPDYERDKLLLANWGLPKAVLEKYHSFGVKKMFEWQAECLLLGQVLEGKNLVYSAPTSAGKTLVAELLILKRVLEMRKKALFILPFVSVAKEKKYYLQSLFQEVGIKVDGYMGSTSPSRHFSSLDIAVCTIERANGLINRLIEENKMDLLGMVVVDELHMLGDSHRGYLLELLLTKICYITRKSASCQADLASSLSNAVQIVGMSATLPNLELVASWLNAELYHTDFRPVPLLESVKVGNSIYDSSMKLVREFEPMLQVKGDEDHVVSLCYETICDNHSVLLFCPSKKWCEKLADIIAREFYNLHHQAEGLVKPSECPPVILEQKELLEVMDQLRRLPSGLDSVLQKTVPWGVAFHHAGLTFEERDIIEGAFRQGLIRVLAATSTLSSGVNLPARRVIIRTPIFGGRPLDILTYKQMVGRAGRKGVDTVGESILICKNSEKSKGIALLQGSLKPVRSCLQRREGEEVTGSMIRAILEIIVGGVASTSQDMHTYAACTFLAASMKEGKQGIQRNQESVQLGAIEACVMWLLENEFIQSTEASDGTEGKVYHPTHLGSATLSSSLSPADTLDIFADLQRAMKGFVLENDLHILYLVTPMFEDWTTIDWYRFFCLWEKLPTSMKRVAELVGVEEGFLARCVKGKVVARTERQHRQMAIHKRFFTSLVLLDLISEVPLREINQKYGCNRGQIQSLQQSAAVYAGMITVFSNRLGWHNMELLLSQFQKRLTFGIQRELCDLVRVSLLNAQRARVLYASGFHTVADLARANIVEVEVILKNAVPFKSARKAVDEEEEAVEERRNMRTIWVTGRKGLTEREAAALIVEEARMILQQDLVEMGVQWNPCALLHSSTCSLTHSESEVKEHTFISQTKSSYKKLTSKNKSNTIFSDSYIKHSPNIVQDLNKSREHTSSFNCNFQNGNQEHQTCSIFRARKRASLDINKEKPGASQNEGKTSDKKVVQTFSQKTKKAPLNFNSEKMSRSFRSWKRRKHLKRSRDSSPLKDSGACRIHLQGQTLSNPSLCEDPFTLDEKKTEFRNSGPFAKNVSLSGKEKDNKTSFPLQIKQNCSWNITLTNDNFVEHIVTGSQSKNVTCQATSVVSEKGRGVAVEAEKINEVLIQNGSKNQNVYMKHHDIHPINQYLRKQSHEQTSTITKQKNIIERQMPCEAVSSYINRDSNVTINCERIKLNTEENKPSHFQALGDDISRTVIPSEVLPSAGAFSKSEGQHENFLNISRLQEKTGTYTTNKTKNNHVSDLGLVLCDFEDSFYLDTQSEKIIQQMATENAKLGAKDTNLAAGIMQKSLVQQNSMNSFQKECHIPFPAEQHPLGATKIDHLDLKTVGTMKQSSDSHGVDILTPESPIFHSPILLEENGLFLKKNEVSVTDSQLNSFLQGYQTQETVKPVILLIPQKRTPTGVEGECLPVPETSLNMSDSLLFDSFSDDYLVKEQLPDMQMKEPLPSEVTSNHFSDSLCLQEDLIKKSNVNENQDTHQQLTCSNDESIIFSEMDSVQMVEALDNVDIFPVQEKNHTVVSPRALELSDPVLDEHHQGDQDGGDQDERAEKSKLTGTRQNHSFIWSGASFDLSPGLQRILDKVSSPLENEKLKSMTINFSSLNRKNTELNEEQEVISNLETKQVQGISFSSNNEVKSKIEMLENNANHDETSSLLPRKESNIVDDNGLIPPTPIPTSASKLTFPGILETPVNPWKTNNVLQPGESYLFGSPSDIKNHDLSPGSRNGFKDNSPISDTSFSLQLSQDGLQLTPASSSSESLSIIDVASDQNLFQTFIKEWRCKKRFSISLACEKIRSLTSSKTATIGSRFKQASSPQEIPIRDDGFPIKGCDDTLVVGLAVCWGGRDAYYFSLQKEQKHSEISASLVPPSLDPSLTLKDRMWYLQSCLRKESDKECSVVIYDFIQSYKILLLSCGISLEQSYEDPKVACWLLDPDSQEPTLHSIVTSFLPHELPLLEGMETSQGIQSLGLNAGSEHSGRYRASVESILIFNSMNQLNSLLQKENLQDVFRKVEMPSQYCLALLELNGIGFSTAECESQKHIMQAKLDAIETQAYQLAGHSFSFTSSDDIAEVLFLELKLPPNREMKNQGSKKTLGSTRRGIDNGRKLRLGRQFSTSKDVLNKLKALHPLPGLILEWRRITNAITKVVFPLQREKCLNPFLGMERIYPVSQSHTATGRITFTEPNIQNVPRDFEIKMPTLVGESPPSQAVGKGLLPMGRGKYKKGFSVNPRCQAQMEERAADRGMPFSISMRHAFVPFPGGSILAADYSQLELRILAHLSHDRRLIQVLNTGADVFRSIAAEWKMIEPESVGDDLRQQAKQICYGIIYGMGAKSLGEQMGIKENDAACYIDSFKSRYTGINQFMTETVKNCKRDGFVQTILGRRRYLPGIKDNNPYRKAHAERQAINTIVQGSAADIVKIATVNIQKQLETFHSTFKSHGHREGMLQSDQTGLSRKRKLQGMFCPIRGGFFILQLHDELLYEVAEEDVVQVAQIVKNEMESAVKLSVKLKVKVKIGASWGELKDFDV
Read-out: enzyme activity
Mode: inhibitor
Tested at: 77 µM
Reference: untreated
SMILES	remaining activity
O=C(CCc1ccncc1)NNC(=O)N1Cc2ccccc2Oc2ccc(Cl)cc21	102%
COc1ccc2[nH]c([S+]([O-])Cc3ncc(C)c(OC)c3C)nc2c1 (stereo not shown)	107%
CC[N@@+]1(C)[C@@H]2CC[C@H]1C[C@@H](OC(=O)[C@]1(c3ccccc3)CC[C@H](C(=O)O[C@H]3C[C@H]4CC[C@@H](C3)[N@+]4(C)CC)c3ccccc31)C2	102%
OC[C@H]1O[C@@H](OCCc2ccc(O)cc2)[C@H](O)[C@@H](O)[C@@H]1O	101%
CCOC(=O)CC(=O)N1CCSC1COc1ccccc1OC (stereo not shown)	99.7%
COc1ccc([C@@H]2CC(=O)c3c(O)cc(O[C@@H]4O[C@H](CO[C@@H]5O[C@@H](C)[C@H](O)[C@@H](O)[C@H]5O)[C@@H](O)[C@H](O)[C@H]4O)cc3O2)cc1OC	98.2%
O=C(O)C1=CO[C@@H](O[C@@H]2O[C@H](CO)[C@@H](O)[C@H](O)[C@H]2O)[C@@H]2C(CO)=CC[C@H]12	101%
O=C(/C=C/c1ccccc1)NC(NC(=S)Nc1cccc2cccnc12)C(Cl)(Cl)Cl (stereo not shown)	104%
CCCCCN(C)CCC(O)(P(=O)(O)O)P(=O)(O)O	96.2%

Single results of other studies
Structure (SMILES)	test system	conditions	quantity	value
CC(C)n1cnc(-c2ccc(F)cc2)c1-c1ncc(C(=O)Nc2ccc(N3CCN(C)CC3)cc2)[nH]1	IPF patients	30 mg once daily, adverse event incidence	blood pressure increased	0%

Repeated from above (series 1):
target	remaining binding [%]
MAPK7 (Homo sapiens, UniProt Q13164)	88
AXL (Homo sapiens, UniProt P30530)	100
Tyrosine-protein kinase ABL1, non-phosphorylated (ABL1, Homo sapiens, UniProt P00519, Q252H)	90
PIM3 (Homo sapiens, UniProt Q86V86)	96
